Published values collected from several papers.
Parts stem from different laboratories: compare values within a part only. Substitutions count along the parent as printed.

Series 1
Target: RNA binding protein fox-1 homolog 2, RRM domain, GST-SBP tag (RBFOX2, Homo sapiens, UniProt O43251-10, residues 100-194)
Method: RNA Bind-n-Seq
Molecule type: RNA
Sample: in vitro
Tested at: 365 nM
Notes: natural RNA segment, single round, ends assumed
Baseline: no-protein control
Direction: higher = stronger binding
Shared flanks, not repeated: GGGAGUUCUACAGUCCGACGAUC … UGGAAUUCUCGGGUGCCAA
Residues (chain): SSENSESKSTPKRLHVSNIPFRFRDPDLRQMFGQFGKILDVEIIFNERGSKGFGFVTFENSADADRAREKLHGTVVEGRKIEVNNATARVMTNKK
For `UGCGCCCUGUUCUGUCCUUUCCCAAAGCCCCCUUCUGCCCAUAGCAUGGAUCCAACCCAGGUCACAGGCCUGGGACUUGGUACCCUGGUUGGACACUCCUGAGACUCCAA`, “RBNS enrichment (R)” read 0.485.
`AUUGGUAUAGCAGUGGUAUUUGCAGACUGGGAUCAUAAGGAGCCCUUAAAUACUUGUUAUUGACUGGGGUUAUUUUUAUGCUGUAGCAAAUGUGACAGGCUCUUUUUAGC`: “RBNS enrichment (R)” 0.412.
`CUGGACCGGUCUGGGUUUAAUCUCCCACAAUAAAGAUAAACCCCACGGACCUCACUGCUACUGCUGCCUCCAUUAACGCUGUGCUCACACAUUGUCUGGGAUUUUAAGGA`: “RBNS enrichment (R)” 0.597.
Under “RBNS enrichment (R)”, `AAAUAUUAUUAAAACAUUUCUGCCUAUGGUUAAAAAUCCAGAAAUCAAAGAAAUGAUCUUCAUGAUAAACUUCAAAGGAACAAACUUUAUGUUUUAGCUUCUAAAGACAA` is recorded as 0.34.
Under “RBNS enrichment (R)”, `UGUAUGAAUUGCUGUGCUGCAAAGCCAAACAGCUGCAAAAUGUUGAAAAAUCAUCGAAAUGUAUAAAAAUUGCAGUAUCUUUAAAAUCAGUAAAAUGGACUAGCAUAUUA` is recorded as 2.27.
`UUUAAAACCAUCUUGAAAGAACCCUUAUUGGCAUAUGCAGGAGACAUCUGCUCAUUGUCUAAUGCCUGACCCCCAUUCAUUUAGUUAUUCAAUAUAGACUUGCCCAAUUA`: “RBNS enrichment (R)” 0.506.
`UUUAAAACAUAGGAAAGUAGAAUGGUUGAGUGCAAAUCCAUAGCACAAGAUAAAUUGAGCUAGUUAAGGCAAAUCAGGUAAAAUAGUCAUGAUUCUAUGUAAUGUAAACC`: “RBNS enrichment (R)” 0.66.
`CCAAGUUCUAAAAGUUAUGGUUAGAUGCUAUUCUGUGGGUUGCUUUGAUAAUUCUUACUAACACAGAUUAGGGUAUAGGCAUCUAGAGAUGCACUGUCCACUGUAAAUAC`: “RBNS enrichment (R)” 2.48.
`AGCCACACAGCUGCAAAACGUUGAAGAAAAUCAUUGAUGUAUAAAAAUUGCAGUAUCUUUCAAAUCAGUAAAAUGGAUGCUUAUUAUUUAUCUUGUUCUUCAGUUAACAU`: “RBNS enrichment (R)” 0.503.
For `UUUAUUUUGUGGCUAGAAAGUCAGUUUUGUGUGUUUUUUUUUUUUUUUAUUUGAAGUGCCAAAUUAACUUUAGUCAGAAUGUGAGCAGAUGGCUAAGUUCUCUCCUCCCC`, “RBNS enrichment (R)” read 0.642.
`AUACUUUUAUUUUCACUAGUUUUGCUUCUAGGCAAAAAGCAAAAUAAACUUUUCAUCUUAAAGAAAAUCUAGUUUGAUUGUUUUUAUUUACCAGGGGAAGGACUAUUAAG`: “RBNS enrichment (R)” 0.826.
Under “RBNS enrichment (R)”, `GAGGGAGAAUGAAUUGUCAUGAAAAAUUGGGGUUGAUUUUAUGUAUCUCUUGGGACAACUUUUAAAAGCUAUUUUUACCAAGUAUUUUGUAAAUGCUAAUUUUUUAGGAC` is recorded as 0.969.

Series 2
Target: Histone acetyltransferase KAT6A, both winged helices, GST fusion (KAT6A, Homo sapiens, UniProt Q92794, residues 1-181)
Method: protein binding microarray
Molecule type: double-stranded DNA, one strand shown
Sample: in vitro
Tested at: not given
Notes: 8-mer, flanks averaged, mean of 2 arrays, mostly near background
Baseline: not given
Direction: higher = stronger binding
Target sequence (chain): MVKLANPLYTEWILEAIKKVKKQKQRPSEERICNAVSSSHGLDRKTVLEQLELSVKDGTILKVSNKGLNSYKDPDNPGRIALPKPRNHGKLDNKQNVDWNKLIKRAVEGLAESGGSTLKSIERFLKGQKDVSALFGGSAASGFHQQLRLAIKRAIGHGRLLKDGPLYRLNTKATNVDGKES
For `GCGATGAA`, the E-score was 0.063.
The E-score of `CCAATCAG` is reported as -0.354.
For `ATATCCCC`, the E-score was -0.1.
With `GTGGGTCA` the E-score was -0.128.
With `CCGCAGTC` the E-score was 0.169.
`GGGAGCAC` has an E-score of -0.148.
The E-score of `CATGAGGA` is reported as -0.0022.
The E-score of `CACAGATC` is reported as -0.0657.
`GCCGGAAA` gave an E-score of 0.222.
The E-score of `CCGGAACC` is reported as 0.175.
The E-score of `CCAAATGG` is reported as -0.0872.
`AGGCCATC` has an E-score of -0.0659.
`AATGTCAA` gave an E-score of -0.0797.
The E-score of `CACAGACC` is reported as 0.051.
With `CAATGCTG` the E-score was -0.106.
The E-score of `ACGCGCAC` is reported as 0.255.
`ATTACATC` has an E-score of 0.0359.
For `TTAATAAA`, the E-score was 0.0458.
For `CGTGGATC`, the E-score was -0.0266.
With `AACCGCGC` the E-score was 0.307.
For `CTTTGCCC`, the E-score was -0.122.
With `ATAAAATA` the E-score was 0.0047.
`AGGGACCA` gave an E-score of -0.108.
`ATCGTGAC` has an E-score of 0.0384.
With `TCTTTTAA` the E-score was -0.0593.

Series 3
Target: Ras GTPase-activating protein-binding protein 1, RRM domain (G3BP1, Homo sapiens, UniProt Q13283)
UniProt Q13283, sequence (whole entry, looked up): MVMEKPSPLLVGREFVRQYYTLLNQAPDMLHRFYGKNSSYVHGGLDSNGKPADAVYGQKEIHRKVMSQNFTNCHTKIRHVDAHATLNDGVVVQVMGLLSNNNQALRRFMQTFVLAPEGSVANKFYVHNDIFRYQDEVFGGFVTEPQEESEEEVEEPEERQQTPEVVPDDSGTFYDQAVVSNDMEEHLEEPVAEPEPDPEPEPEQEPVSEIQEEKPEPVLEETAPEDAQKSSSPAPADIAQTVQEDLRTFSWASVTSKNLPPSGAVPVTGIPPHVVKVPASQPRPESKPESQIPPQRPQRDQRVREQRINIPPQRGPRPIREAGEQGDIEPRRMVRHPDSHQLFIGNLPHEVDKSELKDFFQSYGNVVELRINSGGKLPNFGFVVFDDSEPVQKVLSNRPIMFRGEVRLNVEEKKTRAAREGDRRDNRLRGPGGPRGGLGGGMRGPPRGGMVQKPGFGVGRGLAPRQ
Method: RNA Bind-n-Seq
Molecule type: RNA
Sample: in vitro
Tested at: 1 µM
Notes: whole 134-nt RNA, ends assumed
Together with: 150 mM KCl
Baseline: input library
Direction: higher = stronger binding
Shared flanks, not repeated: GGGAGUUCUACAGUCCGACGAUC … UGGAAUUCUCGGGUGUCAAGG
`CUGUGCUACACAUCGUAUGUACCGAAUCGGGGUUUUUUUGGGGUUUUUUUGGGGUUUGGGGAAAGUAUUAUGUUACGCCGUUCGGAUCUG` has a log2 enrichment of 0.402.
The log2 enrichment of `UAACUUUAGAGGAGGAUCUGAUGGAUAUAGCAGUGGACGUGGAUUUGGGGAUGGCUAUAAUGGGUAUGGAGGAGGACCUGGAGGUGGCAA` is reported as -0.671.
`CCUGUGCUACACAUCGUAUGUACCGAAUCGGUUUUUUUGGGUUUUUUUGGUUUUUUUGGGGAAAGUAUUAUGUUACGCCGUUCGGAUCUG` has a log2 enrichment of -0.36.
For `AAGUCCUGUGCUACACAUCGUAUGUACCGAAUCGGGAAAAGGGAAAAGGGAAAAGGAAAGUAUUAUGUUACGCCGUUCGGAUCUGCACUU`, the log2 enrichment was -0.104.
`CUCAAGUCCUGUGCUACACAUCGUAUGUACCGAAUCGGGUUGGGUUGGUUGGGAAAGUAUUAUGUUACGCCGUUCGGAUCUGCACUUCCA` gave a log2 enrichment of -0.027.
The log2 enrichment of `GUCCUGUGCUACACAUCGUAUGUACCGAAUCGGGAAAAAGGAAAAAGGGAAAAAGGGGAAAGUAUUAUGUUACGCCGUUCGGAUCUGCAC` is reported as 0.0158.
`AAACAGCUCUAUAACAAAAUACAAUGCGGGUUCAUGUUAAUGUUUUUAUCUCUAACAGGUUGGUUUCAGUGCUGAUGAAACUUGGGACUC` gave a log2 enrichment of -0.536.
With `UUUUUCCAGAGCUCACAACGACCUGGGGCUGAGGACAAUGUCCUCAAUGAGAUCGUGAGUAUCUUGCAGCCCACCCAGGUCCCUGAGCAG` the log2 enrichment was -0.204.
`CCUGUGCUACACAUCGUAUGUACCGAAUCGGGGAAAAAGGGGUUUUUGGGGAAAAAGGGGAAAGUAUUAUGUUACGCCGUUCGGAUCUGC` gave a log2 enrichment of 0.723.
`AAGUCCUGUGCUACACAUCGUAUGUACCGAAUCGGGGAAAGGGGAAAGGGGUGGGGAAAGUAUUAUGUUACGCCGUUCGGAUCUGCACUU` gave a log2 enrichment of 1.01.

Series 4
Target: ABI1, truncated, D143A, DHFR fusion (Arabidopsis thaliana)
Method: DHFR PCA, deep sequencing
Sample: yeast
Notes: methotrexate growth selection, single substitutions
Together with: (+)-ABA 0 µM
Baseline: wild-type fitted maximum
Direction: higher = stronger binding
Starting sequence: PYL1, truncated, DHFR fusion (Arabidopsis thaliana); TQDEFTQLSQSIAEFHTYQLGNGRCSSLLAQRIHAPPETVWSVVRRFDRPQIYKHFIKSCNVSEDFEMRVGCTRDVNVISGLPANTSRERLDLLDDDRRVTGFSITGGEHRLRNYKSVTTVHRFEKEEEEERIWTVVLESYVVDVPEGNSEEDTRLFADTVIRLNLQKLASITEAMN; partner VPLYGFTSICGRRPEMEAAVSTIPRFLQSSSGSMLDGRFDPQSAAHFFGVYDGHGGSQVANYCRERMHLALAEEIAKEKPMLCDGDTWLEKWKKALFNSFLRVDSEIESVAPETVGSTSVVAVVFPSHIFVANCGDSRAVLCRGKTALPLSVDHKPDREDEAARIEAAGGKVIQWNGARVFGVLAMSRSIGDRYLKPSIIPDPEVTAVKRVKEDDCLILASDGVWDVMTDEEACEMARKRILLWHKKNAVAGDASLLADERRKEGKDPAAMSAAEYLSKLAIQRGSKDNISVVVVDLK
`Y115P` — result for “relative binding score”: 4.71%.
`H55K` — result for “relative binding score”: -0.29%.
`P146F` — result for “relative binding score”: -7.56%.
`R24T`: “relative binding score” 15.7%.
Under “relative binding score”, `E125C` is recorded as 42.4%.
Under “relative binding score”, `Y141C` is recorded as 4.57%.
Under “relative binding score”, `G102D` is recorded as -5.58%.
`V40K` — result for “relative binding score”: -1.13%.
`V44F`: “relative binding score” -5.81%.
`L8Y`: “relative binding score” 14.6%.
`V70N`: “relative binding score” 2.37%.
Under “relative binding score”, `V62Y` is recorded as -2.51%.
`K116Q` — result for “relative binding score”: 25.7%.
For `N85D`, “relative binding score” read 11.6%.
For `D65V`, “relative binding score” read -3.97%.
`V142Q` — result for “relative binding score”: 6.08%.
`G71N`: “relative binding score” -1.1%.

Excerpt of the above (series 1):
`UUUAAAACAUAGGAAAGUAGAAUGGUUGAGUGCAAAUCCAUAGCACAAGAUAAAUUGAGCUAGUUAAGGCAAAUCAGGUAAAAUAGUCAUGAUUCUAUGUAAUGUAAACC`: “RBNS enrichment (R)” 0.66.
`CCAAGUUCUAAAAGUUAUGGUUAGAUGCUAUUCUGUGGGUUGCUUUGAUAAUUCUUACUAACACAGAUUAGGGUAUAGGCAUCUAGAGAUGCACUGUCCACUGUAAAUAC`: “RBNS enrichment (R)” 2.48.
`AGCCACACAGCUGCAAAACGUUGAAGAAAAUCAUUGAUGUAUAAAAAUUGCAGUAUCUUUCAAAUCAGUAAAAUGGAUGCUUAUUAUUUAUCUUGUUCUUCAGUUAACAU`: “RBNS enrichment (R)” 0.503.
For `UUUAUUUUGUGGCUAGAAAGUCAGUUUUGUGUGUUUUUUUUUUUUUUUAUUUGAAGUGCCAAAUUAACUUUAGUCAGAAUGUGAGCAGAUGGCUAAGUUCUCUCCUCCCC`, “RBNS enrichment (R)” read 0.642.
`AUACUUUUAUUUUCACUAGUUUUGCUUCUAGGCAAAAAGCAAAAUAAACUUUUCAUCUUAAAGAAAAUCUAGUUUGAUUGUUUUUAUUUACCAGGGGAAGGACUAUUAAG`: “RBNS enrichment (R)” 0.826.
Under “RBNS enrichment (R)”, `GAGGGAGAAUGAAUUGUCAUGAAAAAUUGGGGUUGAUUUUAUGUAUCUCUUGGGACAACUUUUAAAAGCUAUUUUUACCAAGUAUUUUGUAAAUGCUAAUUUUUUAGGAC` is recorded as 0.969.
